Published values collected from several papers.
Parts stem from different laboratories: compare values within a part only.

Set 1 — method: universal PBM; form: double-stranded DNA, one strand shown; medium: in vitro; tested at: not given; reading: higher = stronger binding; endpoint: E-score
Target: Sal-like protein 4, full length isoform B (SALL4, Homo sapiens, UniProt Q9UJQ4-2, residues 1-616)
Setting: 8-mer, flanks averaged, mean of replicates
Construct (chain): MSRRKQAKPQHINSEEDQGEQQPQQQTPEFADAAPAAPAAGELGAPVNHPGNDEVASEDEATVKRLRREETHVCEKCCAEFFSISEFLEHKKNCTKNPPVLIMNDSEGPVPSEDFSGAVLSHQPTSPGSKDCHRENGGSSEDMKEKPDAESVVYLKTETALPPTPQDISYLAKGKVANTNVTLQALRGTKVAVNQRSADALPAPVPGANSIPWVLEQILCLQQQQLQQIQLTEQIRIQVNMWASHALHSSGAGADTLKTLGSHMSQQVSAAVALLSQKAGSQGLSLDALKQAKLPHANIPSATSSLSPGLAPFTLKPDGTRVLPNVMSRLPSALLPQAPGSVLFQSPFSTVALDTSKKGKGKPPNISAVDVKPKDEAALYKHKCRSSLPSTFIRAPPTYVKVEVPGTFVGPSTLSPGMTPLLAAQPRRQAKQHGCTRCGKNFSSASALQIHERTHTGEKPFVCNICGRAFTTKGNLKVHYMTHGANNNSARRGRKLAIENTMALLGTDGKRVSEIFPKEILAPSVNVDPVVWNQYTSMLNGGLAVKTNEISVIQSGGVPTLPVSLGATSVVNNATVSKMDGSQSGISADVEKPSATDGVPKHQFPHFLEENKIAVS
AGAGGTGA: 0.0488
ACGTCCAC: -0.0871
GCCGTGCA: -0.15
TTGCGCAA: 0.215
AGCACTTC: 0.0224
CGAGCGGA: -0.281
TACTTTGA: 0.075
CTAATAGA: 0.189
AATGGGGT: -0.00374
GGCACCCA: -0.295
AACATAAC: 0.311
AACTATGT: 0.136
AAGACGTC: 0.0457
CTACGACC: -0.192
AGTCCACC: -0.251
AGCCCCAA: -0.209
ATTGGTTG: 0.0411
ACAAAACA: 0.206
CGCTAACC: -0.187
ATTAACAC: 0.313
AATCCCTA: 0.013
AGCATCAG: -0.0439
GCGTACAA: -0.087
CTCCCTTC: -0.335

Set 2 — method: RNA Bind-n-Seq; form: RNA; medium: in vitro; tested at: not given; reference: input RNA pool; reading: higher = stronger binding; endpoint: bound/input enrichment
Target: RING finger protein unkempt homolog, zinc fingers 1-6, GST-SBP tag (UNK, Homo sapiens, UniProt Q9C0B0, residues 30-357)
UniProt Q9C0B0, sequence (30-357, looked up): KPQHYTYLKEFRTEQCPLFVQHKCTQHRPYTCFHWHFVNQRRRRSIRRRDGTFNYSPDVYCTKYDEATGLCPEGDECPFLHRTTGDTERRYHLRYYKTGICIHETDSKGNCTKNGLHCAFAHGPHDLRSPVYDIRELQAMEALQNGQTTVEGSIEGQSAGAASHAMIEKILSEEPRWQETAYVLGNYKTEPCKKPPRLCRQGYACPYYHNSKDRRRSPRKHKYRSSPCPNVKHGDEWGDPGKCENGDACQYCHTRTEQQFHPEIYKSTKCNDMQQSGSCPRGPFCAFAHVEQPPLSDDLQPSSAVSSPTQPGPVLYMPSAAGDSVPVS
Setting: RNA with constant flanks, human and mouse sites, ends assumed
Constant ends, left off below: GGGAGUUCUACAGUCCGACGAUC … CAACAGAGGAUUGAGCAUCA
ACAGUGCAGUACAUACUAACCAUGGUUGACGAUAUGCUGCAGGAAAAUCACCAGCGUGUCAGCAUUUUCUUUGACUAUGCGAAACGAAGCAAGAGCACUGCCUGGCCAUACUUCCUGCCA: 0.152 ratio
CAGAGGAAGCAGCCGAUCGGGCCGGAGGACGUGCUGGGGCUGCAGCGGAUCACCGGUGACUACCUCUGCUCCCCUGAGGAGAAUAUCUACAAGAUCGACUUUGUCAGGUUUAAGAUUCGG: 0.106 ratio
UGUUUUUAAGGGAAAUGAAUAGAAACAAUCCACUUUGAAGAAGCCAUGGCGAAAUCAAAGACAAAACAUAGACUUUGUUCUCAGGAAUCUUCAGUAUCUGCCCUGCUGGCAAGCUGCACC: 0.421 ratio
ACAAGAUGACCUUCUGUCGACCUUUAAACUAUAAACGCUGGUUGGAAAUGUUCCCAUGACUGUAAGUCUGCCUGUUGAUUCCUUUUCUUCCAACUACCAUGAUUCUCCUGUGGACCCAGA: 0.276 ratio
AUUAAUGCUCUAAUGCAUGCUUUGAUUGAAUUACGGACAAAGGACCCCAACAUAAAAAGUUUAGUUGUUUCUCAGUUUACCACAUUCUUGUCUUUAAUAGAAACACCUCUUAAAGCCUCA: 0.987 ratio
UCUUCUGUUAUCCCUGGGGGUGCUCAGGUUCACUUGAUUGUCUGUAUUUCUGUGUGGUUGUAGCAAGGACUCAGCCUCAUGUAGCACGAAUAGGGGUGUGGUUCAUGGCGUGUUGACCCA: 0.328 ratio
AAAUUUAAAAAUUCUUUCUGUUGUACAGAAUUAAAUGAGGAAAACAAACAAUCUCAUUCGUUUAGUUUGCAGACUCCUUGUUCAAAAGGUAGUGAAUUAAGAACAAUUAAUAAGAUUUCU: 3.44 ratio
AUAUCCAGUGGCCUAGAAUUUGUAUCCCACAACCCACCCAGUGAAGCAGCUACUCCUCCAGUAGCAAGGACCAGUCCCUCGGGGGGAACGUGGUCAUCAGUGGUCAGUGGGGUUCCAAGA: 0.116 ratio
AAAGAUCCUAAUAUGAAAGGUGCAAUGCUUACCAACACUGGAAAAUAUGCAAUACCAACUAUAGAUGCAGAAGCAUAUGCAAUUGGGAAGAAAGAGAAACCUCCCUUCUUACCAGAGGAG: 0.264 ratio
CUAAGGAAAGAAGGGCUAAAGGAUGAGGAAGAGCUCUUUGAUUUUAAAGCUGGAGAAGAAGUACUGGCUCGUUGGACAGACUGUCGCUAUUACCCUGCCAAGAUUGAAGCAAUUAACAAA: 0.253 ratio
GGCACCCAAGUGGAUGAGGGUGUCCGCUCAGCUAGCAAACGCAUUGUGGCACCCCCUGGAGGCCGUUCUAACAUCACAUCCCUGAGUUAAGCCCUCCCAAAGAGGGAGGCAGAAGCAAGA: 0.312 ratio

Set 3 — method: protein binding microarray; form: double-stranded DNA, one strand shown; medium: in vitro; tested at: not given; reference: not given; reading: higher = stronger binding; endpoint: E-score
Target: Histone acetyltransferase KAT6A, winged helix 2, GST fusion (KAT6A, Homo sapiens, UniProt Q92794, residues 85-181)
Setting: 8-mer, flanks averaged, mean of 2 arrays, mostly near background
Construct (chain): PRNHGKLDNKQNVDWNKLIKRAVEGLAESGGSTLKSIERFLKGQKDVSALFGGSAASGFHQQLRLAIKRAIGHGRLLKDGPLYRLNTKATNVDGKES
ATCGCTCG: 0.0562
CACCTTTC: -0.167
CCATCACC: -0.258
CGTCGGGC: 0.0832
CGTGCAAG: 0.0119
CCTTCCCG: -0.0504
CGCTCCCG: 0.0374
CTCGTTGA: 0.105
ACCTGTTC: -0.0704
AGTGAGGG: 0.0817
AAACCGCG: 0.196
AACCCGCA: 0.0577
GTCACAGA: -0.0196
CGCCTCGC: 0.209
GCATATCC: -0.0458
CCACAAAA: 0.219
AGACTGTC: -0.227
CGCGAGCC: 0.109
ATTAGACA: 0.0515

Set 4 — method: protein-binding microarray; form: double-stranded DNA, one strand shown; medium: in vitro; tested at: 250 nM; setting: 60-bp whole probe; added: salmon DNA 0.4 mg/ml; reference: random background probes; reading: higher = stronger binding; endpoint: log fluorescence; constant ends, left off below: GCCTAGCAC … GTCTTGATTCGCTTGACGCTGCTG
Target: Interferon regulatory factor 7, full length, phosphomimetic (IRF7, Homo sapiens, UniProt Q92985, residues 1-503, S101K/S471D/S472D/S475D/S476D/S477D/S483D/S484D/S487D)
UniProt Q92985, sequence (whole entry, unmodified, looked up): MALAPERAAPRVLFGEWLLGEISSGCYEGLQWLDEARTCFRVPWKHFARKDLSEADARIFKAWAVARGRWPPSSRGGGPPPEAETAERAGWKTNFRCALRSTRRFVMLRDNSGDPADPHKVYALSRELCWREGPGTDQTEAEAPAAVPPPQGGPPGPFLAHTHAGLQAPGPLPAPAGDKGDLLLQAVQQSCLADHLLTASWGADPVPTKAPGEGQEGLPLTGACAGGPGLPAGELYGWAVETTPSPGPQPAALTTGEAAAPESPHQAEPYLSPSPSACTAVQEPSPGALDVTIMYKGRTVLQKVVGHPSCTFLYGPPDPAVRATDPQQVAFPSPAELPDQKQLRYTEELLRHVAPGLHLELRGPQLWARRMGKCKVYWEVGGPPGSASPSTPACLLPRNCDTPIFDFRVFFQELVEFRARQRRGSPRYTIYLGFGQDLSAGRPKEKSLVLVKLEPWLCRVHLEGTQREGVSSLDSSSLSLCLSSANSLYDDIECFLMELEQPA
TTGCTTCCCAATTCTCTTTTCGTGCTA: 2.32 z-score
CTGATCCTTCATTTGAAAGAGTGCTAG: 0.782 z-score
CATTGCCTATTTTTCACCTGGTGCTAG: 0.894 z-score
GCAGGAGAGACAGAAGTTATGTGCTAG: -1.01 z-score
CCCCATCTTGTTCCCAGAGAGTGCTAG: 0.808 z-score
TTAGGTTTCCTTTCCCATTAGTGCTAG: 4.98 z-score
ATTGTTTCCTTCCTCTTTTAGTGCTAG: 2.94 z-score
GTAGGTTTCGGTATCGGTTAGTGCTAG: 10.9 z-score
TTAGGTCTCCTTATCCTATAGTGCTAG: 0.799 z-score
CTCACCATCATCCTCACTGCGTGCTAG: 0.364 z-score
ATTGCTTCCTCTTTCTCTGCGTGCTAG: 1.16 z-score
TTAGATTTCGGGACTCGATTAGTGCTA: 1.27 z-score
GACGGTATCGGTCACGGGACGTGCTAG: -0.0318 z-score
TTAGAACTAGGGACTGGATTAGTGCTA: 0.12 z-score
TTAGGTATCGGTCTCGGCTAGTGCTAG: 0.965 z-score
CCCACCCTCAGGGAGCCTGTGTGCTAG: -0.613 z-score
GACGGTATCGACTTTCGGGTCGTGCTA: 2.15 z-score
TTAGGTCTCCTACTGCTTTTGTGCTAG: -0.235 z-score

Set 5 — method: RNA Bind-n-Seq; form: RNA; medium: in vitro; tested at: 365 nM; reference: no-protein control; reading: higher = stronger binding; endpoint: RBNS enrichment (R)
Target: RNA binding protein fox-1 homolog 2, RRM domain, GST-SBP tag (RBFOX2, Homo sapiens, UniProt O43251-10, residues 100-194)
Setting: natural RNA segment, single round, ends assumed
Constant ends, left off below: GGGAGUUCUACAGUCCGACGAUC … UGGAAUUCUCGGGUGCCAA
Target sequence (chain): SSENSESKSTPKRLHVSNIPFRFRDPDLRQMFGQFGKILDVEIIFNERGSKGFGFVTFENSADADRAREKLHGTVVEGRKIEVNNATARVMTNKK
CCCAGUGGGCUCGGCAGCCGUCACUUCACAGAAGAAGAAAGGAACCUUGCUUAGGCCUCAGAUCCCAGCUGUGCUCUCCAAUCCAUUAAUAAAGCUGCUUUUAACCCUCU: 0.488
CCCACCCCGUGCAGCCCAUGCUGAGGCUGCAGUGGUGUCGUGGGUGUUACGUGCAGGAACGUGGAGACCCUGACGUGGGCUCACUGCGUUUGGUUUUCUUUUCAGAACUU: 0.284
CCAUCCAGUGGGCCAGCUCCCAGACAGCCAUUCCCAGGUCAUCUUCUUUAAGACAGUGCUAGAGUAGAACACGGGGCCUGUGCAUAACAAACGCCCUACUUCUAAGCUCG: 0.345
ACAGAGGCAGAUGCCAAACCAAAGACAGAUUGCUUAACCAACAGAUGGGCGCUGACCCCCUAUCCAGAAUCACAUGCACAAGUUUUUACCUAGCCAGUUGUUUCUGAGGA: 0.224
GUUUUAUUUAACCAUGGGGUAGGCUGGGGUGAUGUUUCAGUUUUCAAGGGACAGAAGCAAGACAAAAUGCAUGGGCCCUUGUGUUCCUAAUGGUCUUAACUGAAGUCCAA: 1.8
ACGCCUCACAAUCAUGGUGGAAGGCAAGGAGGAGCAAAUCAUGUCUUAUACAUGGAUGGCAGCAGGCAAAGAGAGAACUUGUGCAGGGGAACUCUUUAUAAAACCGUCCG: 0.49
AGGCAUGGUGGUUCAUGCCUGUAAUAGCACUUUGGGAGACUGAGGUGGGAGGAUCACUUGGGGCCAGGAGUUUGAGACCAGCUUGGGCAACACAGCGCAAUCUCGUCUCU: 0.477
AGUGCUGUCAACUGGUCUCCCACUGUCACUCCCACUCAUUUCAUUUGGACACAGGAAAUGUUGAUAGAUAUUUCGUUAAAUUGGUGAGUUUGGUAAUAUGUUAGCUCUCA: 0.849
GCCGUGAGUUUUCCAUUGGAAAGAAGUUCAGUGGUCCCAUUGUUAACUCAGCCUCAAAUCUCAACUGUCAGGCCCUACAAAGAAAAUGGAGAGCCUCUUCUGGUGGAUGC: 0.251
GGAGAUCACAGCCCUGACCAAUAGGCCCAGCGGUCCACACACACUUCACUAUUUGGUUUAAUGUCAGGUCUGCUGGGGGUAAUGGUGGCCAAGAUCUCAAACUAGGGCUU: 0.212
UCCGCUGCUUCUUGGUUGCCGAGACAGAGAGAUGGUGGUCUCGGGCCAGCCCCUCCUCUCCCCGCCUUCUGGGAGGAGGAGGUCACACGCUGAUGGGCACUGGAGAGGCC: 1.58
GGACCCAUAAGGCACAUUAGCGUUGGGGGUCUCUUUUCAGCAGCCUCACAGACAUUCCCGUCCUUUCUGGUUGGUGUUGACUGUGUUUCAGCAUCACUCUACCCUCCCAU: 0.319
